{"data": "Measurements pooled from the literature", "note": "A part holds a random share of what one study measured.", "UniProt P23458, sequence (whole entry, looked up)": "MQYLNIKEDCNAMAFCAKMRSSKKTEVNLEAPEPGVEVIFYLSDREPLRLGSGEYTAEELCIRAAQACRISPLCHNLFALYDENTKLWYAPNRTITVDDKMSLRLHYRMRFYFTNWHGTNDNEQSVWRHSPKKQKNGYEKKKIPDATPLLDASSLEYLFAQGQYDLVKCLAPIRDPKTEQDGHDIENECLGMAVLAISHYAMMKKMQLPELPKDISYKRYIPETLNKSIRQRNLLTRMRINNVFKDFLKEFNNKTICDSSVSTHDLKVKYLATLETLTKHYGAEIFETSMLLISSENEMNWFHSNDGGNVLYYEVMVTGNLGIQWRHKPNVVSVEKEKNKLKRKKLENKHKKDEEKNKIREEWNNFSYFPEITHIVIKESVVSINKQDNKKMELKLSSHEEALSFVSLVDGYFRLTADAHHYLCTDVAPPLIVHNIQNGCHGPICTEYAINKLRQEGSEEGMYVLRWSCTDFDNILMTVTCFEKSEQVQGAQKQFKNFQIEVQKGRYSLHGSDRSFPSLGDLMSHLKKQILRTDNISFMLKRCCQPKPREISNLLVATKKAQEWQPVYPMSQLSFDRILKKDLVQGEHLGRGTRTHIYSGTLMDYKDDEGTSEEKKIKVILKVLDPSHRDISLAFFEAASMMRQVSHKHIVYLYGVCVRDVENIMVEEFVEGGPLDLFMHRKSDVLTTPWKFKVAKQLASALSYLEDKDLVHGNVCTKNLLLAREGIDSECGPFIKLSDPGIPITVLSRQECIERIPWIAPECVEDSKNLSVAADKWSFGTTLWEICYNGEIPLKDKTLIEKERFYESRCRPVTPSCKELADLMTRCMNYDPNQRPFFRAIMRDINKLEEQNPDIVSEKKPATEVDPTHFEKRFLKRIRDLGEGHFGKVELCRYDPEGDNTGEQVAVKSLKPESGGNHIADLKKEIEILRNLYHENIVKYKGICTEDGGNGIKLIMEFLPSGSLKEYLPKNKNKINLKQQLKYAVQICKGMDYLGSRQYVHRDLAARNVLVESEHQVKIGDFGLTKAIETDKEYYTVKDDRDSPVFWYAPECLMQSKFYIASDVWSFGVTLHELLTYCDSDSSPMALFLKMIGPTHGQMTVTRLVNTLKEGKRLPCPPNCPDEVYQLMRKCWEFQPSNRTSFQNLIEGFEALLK", "UniProt P42336, sequence (whole entry, unmodified, looked up)": "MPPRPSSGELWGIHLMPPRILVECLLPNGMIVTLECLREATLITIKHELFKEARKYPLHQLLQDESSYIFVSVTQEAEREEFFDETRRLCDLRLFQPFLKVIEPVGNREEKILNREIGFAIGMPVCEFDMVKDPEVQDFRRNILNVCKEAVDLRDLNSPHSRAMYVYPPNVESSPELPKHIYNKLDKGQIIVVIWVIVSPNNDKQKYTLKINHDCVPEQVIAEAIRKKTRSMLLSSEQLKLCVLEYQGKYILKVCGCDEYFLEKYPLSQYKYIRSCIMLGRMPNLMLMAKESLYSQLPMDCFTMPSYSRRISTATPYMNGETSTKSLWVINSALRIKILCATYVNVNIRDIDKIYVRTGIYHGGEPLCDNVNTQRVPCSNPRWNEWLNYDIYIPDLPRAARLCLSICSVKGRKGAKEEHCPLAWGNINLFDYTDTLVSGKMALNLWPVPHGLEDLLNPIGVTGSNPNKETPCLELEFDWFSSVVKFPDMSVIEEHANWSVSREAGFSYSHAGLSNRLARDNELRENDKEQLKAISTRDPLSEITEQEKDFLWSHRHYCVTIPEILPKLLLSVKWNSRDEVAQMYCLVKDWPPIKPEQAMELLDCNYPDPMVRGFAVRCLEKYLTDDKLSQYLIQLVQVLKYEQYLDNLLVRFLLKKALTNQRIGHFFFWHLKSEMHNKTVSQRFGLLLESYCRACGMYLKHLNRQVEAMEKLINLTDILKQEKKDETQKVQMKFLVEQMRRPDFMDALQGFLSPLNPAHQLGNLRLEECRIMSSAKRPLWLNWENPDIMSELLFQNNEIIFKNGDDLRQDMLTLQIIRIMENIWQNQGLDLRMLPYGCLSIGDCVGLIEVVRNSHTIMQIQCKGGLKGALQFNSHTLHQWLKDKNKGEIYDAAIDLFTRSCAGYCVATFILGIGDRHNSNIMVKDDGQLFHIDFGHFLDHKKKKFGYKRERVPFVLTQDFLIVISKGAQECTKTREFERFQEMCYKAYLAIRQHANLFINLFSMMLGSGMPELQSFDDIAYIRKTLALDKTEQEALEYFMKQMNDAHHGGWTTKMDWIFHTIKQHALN", "UniProt Q9BYT3, sequence (whole entry, looked up)": "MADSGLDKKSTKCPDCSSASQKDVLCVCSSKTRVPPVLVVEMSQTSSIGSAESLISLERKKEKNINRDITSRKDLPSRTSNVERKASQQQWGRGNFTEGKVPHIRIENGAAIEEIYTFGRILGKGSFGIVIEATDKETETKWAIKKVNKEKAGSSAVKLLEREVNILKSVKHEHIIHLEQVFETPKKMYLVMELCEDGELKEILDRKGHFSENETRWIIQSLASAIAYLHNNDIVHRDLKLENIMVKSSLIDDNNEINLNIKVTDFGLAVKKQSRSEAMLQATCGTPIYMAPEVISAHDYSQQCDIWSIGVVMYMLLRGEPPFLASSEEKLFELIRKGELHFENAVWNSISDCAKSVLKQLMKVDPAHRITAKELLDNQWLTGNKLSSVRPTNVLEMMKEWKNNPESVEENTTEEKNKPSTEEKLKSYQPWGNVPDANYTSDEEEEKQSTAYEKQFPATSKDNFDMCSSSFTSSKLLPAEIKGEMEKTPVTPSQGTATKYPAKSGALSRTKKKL", "UniProt P35590, sequence (whole entry, looked up)": "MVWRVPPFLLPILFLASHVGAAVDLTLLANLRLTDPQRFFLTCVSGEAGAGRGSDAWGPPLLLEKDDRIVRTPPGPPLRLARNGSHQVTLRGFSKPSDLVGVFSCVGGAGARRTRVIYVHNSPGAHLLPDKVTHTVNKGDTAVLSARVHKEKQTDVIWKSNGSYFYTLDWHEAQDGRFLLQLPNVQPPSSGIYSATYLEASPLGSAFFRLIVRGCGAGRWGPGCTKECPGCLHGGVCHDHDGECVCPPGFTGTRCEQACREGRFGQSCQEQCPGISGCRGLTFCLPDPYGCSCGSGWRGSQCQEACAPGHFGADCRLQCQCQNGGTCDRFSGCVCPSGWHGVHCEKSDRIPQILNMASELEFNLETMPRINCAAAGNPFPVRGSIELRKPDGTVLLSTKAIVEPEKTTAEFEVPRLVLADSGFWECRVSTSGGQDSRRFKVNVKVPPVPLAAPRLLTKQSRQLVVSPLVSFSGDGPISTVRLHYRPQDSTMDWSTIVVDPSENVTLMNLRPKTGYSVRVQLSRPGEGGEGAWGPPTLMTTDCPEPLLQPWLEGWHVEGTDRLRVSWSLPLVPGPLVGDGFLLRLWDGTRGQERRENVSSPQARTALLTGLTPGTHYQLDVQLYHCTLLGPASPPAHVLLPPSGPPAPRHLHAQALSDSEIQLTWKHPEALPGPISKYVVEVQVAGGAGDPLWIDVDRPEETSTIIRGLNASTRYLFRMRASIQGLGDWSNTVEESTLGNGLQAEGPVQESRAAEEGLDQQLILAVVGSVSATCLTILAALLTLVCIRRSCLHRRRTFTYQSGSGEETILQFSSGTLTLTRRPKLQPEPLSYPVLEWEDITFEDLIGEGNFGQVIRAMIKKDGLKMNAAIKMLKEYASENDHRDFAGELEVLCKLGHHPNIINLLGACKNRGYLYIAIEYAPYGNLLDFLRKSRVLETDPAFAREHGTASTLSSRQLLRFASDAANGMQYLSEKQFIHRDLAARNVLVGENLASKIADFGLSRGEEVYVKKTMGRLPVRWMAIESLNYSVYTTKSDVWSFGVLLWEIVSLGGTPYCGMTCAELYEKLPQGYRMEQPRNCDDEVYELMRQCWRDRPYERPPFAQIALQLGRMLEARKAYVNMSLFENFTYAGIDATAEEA"}
{"data": "Sample 1", "target": "SRSF protein kinase 3 (SRPK3, Homo sapiens, UniProt Q9UPE1)", "effect on": "enzyme activity", "mode": "inhibitor", "concentration": "0.5 µM", "relative to": "control", "UniProt Q9UPE1, sequence (whole entry, looked up)": "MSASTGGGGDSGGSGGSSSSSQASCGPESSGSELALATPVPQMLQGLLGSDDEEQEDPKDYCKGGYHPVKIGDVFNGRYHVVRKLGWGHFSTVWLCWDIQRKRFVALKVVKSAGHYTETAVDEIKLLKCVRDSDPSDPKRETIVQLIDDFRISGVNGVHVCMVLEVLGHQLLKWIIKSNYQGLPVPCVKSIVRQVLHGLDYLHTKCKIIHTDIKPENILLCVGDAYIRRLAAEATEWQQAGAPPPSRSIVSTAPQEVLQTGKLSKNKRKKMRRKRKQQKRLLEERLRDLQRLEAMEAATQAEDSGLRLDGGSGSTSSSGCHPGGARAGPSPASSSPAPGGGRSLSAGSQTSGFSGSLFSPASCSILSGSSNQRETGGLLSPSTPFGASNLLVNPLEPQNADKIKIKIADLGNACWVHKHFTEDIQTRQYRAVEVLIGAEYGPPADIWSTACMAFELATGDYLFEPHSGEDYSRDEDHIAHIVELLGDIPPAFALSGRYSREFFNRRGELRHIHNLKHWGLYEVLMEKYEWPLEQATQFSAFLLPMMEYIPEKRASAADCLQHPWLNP"}
{"Structure (SMILES)": "O=C1c2ccccc2-c2n[nH]c3cccc1c23", "remaining activity": "92.5%"}
{"Structure (SMILES)": "c1ccc(-c2[nH]ncc2-c2ccnc3ccccc23)nc1", "remaining activity": "88.9%"}
{"Structure (SMILES)": "N#C/C(=C\\c1ccc(O)c(O)c1)C(=O)NCc1ccccc1", "remaining activity": "93.9%"}
{"Structure (SMILES)": "Cc1cn(-c2cc(NC(=O)c3ccc(C)c(Nc4nccc(-c5cccnc5)n4)c3)cc(C(F)(F)F)c2)cn1", "remaining activity": "101%"}
{"Structure (SMILES)": "Cc1nc2cc3nc(-c4cccs4)cnc3cc2n1C", "remaining activity": "96.6%"}
{"Structure (SMILES)": "C[C@@H]1CCN(C(=O)CC#N)C[C@@H]1N(C)c1ncnc2[nH]ccc12", "remaining activity": "103%"}
{"Structure (SMILES)": "CCOc1nc(NC(=O)Cc2cc(OC)ccc2OC)cc(N)c1C#N", "remaining activity": "92.3%"}
{"Structure (SMILES)": "CCN(CC)CCNC(=O)c1c(C)[nH]c(/C=C2\\C(=O)Nc3ccc(Cl)cc32)c1C", "remaining activity": "92.8%"}
{"Structure (SMILES)": "O=C(Nc1cccc(Nc2nccc(Nc3cccc(C(F)(F)F)c3)n2)c1)C1CC1", "remaining activity": "101%"}
{"Structure (SMILES)": "CN(C)C[C@H]1CCn2c(c(C3=C(c4cn(C)c5ccccc45)C(=O)NC3=O)c3ccccc32)C1", "remaining activity": "100%"}
{"Structure (SMILES)": "Cn1nc2c3c(cccc31)C(=O)c1ccccc1-2", "remaining activity": "96.3%"}
{"Structure (SMILES)": "O=C1C(Cl)=C(N2C(=O)CCC2=O)C(=O)c2ccccc21", "remaining activity": "93.6%"}
{"Structure (SMILES)": "O=c1cc(-c2cccc3c2Sc2ccccc2S3)oc(N2CCOCC2)c1", "remaining activity": "99.6%"}
{"Structure (SMILES)": "Ic1cccc(CSc2nnc(-c3ccncc3)o2)c1", "remaining activity": "101%"}
{"Structure (SMILES)": "Nc1cccc(-c2cc3c(Oc4cccc(O)c4)ncnc3[nH]2)c1", "remaining activity": "101%"}
{"Structure (SMILES)": "Cc1cc2ncc(-c3ccccc3)nc2cc1C", "remaining activity": "91.4%"}
{"Structure (SMILES)": "CCN(CC)CCNC(=O)c1c(C)[nH]c(/C=C2\\C(=O)Nc3ccc(F)cc32)c1C", "remaining activity": "102%"}
{"Structure (SMILES)": "CCN(CC)C(=O)c1ccc(Nc2nc(OCC3CCCCC3)c3[nH]cnc3n2)cc1", "remaining activity": "68.1%"}
{"Structure (SMILES)": "COc1cc2ncnc(Nc3ccc(O)c(Br)c3)c2cc1OC", "remaining activity": "92.4%"}
{"Structure (SMILES)": "COc1cc2c(cc1OC)-c1[nH]nc(Nc3cccc(F)c3)c1C2", "remaining activity": "99.7%"}
{"Structure (SMILES)": "COc1cc2ncnc(Nc3cccc(Cl)c3)c2cc1OC", "remaining activity": "90.1%"}
{"Structure (SMILES)": "N#Cc1c(NC(=O)c2cccc3ccccc23)sc2c1CCCC2", "remaining activity": "95.7%"}
{"Structure (SMILES)": "CN([C@@H](Cc1ccc(OS(=O)(=O)c2cccc3cnccc23)cc1)C(=O)N1CCN(c2ccccc2)CC1)S(=O)(=O)c1cccc2cnccc12", "remaining activity": "98%"}
{"Structure (SMILES)": "O=C1Nc2ccc(Cl)cc2C1=Cc1cc(Cl)c(O)c(Cl)c1", "remaining activity": "88.3%"}
{"Structure (SMILES)": "c1ccc(-c2cnc(Nc3ccc(OCCN4CCCC4)cc3)s2)cc1", "remaining activity": "98.2%"}
{"data": "Sample 2", "target": "Calcium/calmodulin-dependent protein kinase type II subunit alpha (CAMK2A, Homo sapiens, UniProt Q9UQM7)", "effect on": "enzyme activity", "mode": "inhibitor", "concentration": "10 µM", "UniProt Q9UQM7, sequence (whole entry, looked up)": "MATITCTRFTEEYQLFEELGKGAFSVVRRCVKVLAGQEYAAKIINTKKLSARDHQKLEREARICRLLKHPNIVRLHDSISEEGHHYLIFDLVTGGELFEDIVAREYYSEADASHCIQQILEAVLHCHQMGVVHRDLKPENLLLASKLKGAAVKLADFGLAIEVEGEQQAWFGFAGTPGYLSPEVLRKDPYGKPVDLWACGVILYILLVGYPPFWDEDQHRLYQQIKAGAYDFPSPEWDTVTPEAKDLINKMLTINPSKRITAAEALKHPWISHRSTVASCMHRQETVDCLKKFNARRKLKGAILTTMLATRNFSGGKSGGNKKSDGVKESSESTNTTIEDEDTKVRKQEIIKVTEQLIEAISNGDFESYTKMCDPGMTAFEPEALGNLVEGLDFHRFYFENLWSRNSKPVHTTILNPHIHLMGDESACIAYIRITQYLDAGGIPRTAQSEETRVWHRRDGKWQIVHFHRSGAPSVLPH"}
{"SMILES": "c1cncnc1", "inhibition": "-16%"}
{"SMILES": "COC(=O)c1cc(OC)c(OC)c(OC)c1", "inhibition": "-1%"}
{"SMILES": "O=C(O)c1ccc(O)cc1O", "inhibition": "-21%"}
{"SMILES": "O=C1CCN([C@@H]2O[C@H](CO)[C@@H](O)[C@H]2O)C(=O)N1", "inhibition": "27%"}
{"SMILES": "CCCCCCCC/C=C\\CCCCCCCC(=O)OCC", "inhibition": "21%"}
{"SMILES": "Cc1ccccc1C(=O)Nc1ccc(C(=O)N2CCCC(O)c3cc(Cl)ccc32)c(C)c1 (centres unmarked)", "inhibition": "1%"}
{"SMILES": "O=C[C@H](O)[C@@H](O)[C@H](O[C@H]1O[C@H](CO)[C@@H](O[C@H]2O[C@H](CO)[C@@H](O[C@H]3O[C@H](CO)[C@@H](O[C@H]4O[C@H](CO)[C@@H](O)[C@H](O)[C@H]4O)[C@H](O)[C@H]3O)[C@H](O)[C@H]2O)[C@H](O)[C@H]1O)[C@H](O)CO", "inhibition": "20%"}
{"SMILES": "CN(C)C(N)=NCCC[C@H](N)C(=O)O", "inhibition": "-17%"}
{"SMILES": "Cc1[nH]c(=O)c(C#N)cc1-c1ccc2nccn2c1", "inhibition": "-17%"}
{"SMILES": "CN1CC[C@@H](NC(=O)Nc2ccc(C#N)cc2)C[C@@H]1c1nc2ccccc2[nH]1", "inhibition": "-6%"}
{"SMILES": "CC1=CCC(=O)O1", "inhibition": "-3%"}
{"SMILES": "CC(=O)[C@H]1CC[C@H]2[C@@H]3C[C@H](C)C4=CC(=O)CC[C@]4(C)[C@H]3[C@@H](O)C[C@]12C", "inhibition": "-6%"}
{"SMILES": "Oc1cc(O)c2c(c1)O[C@H](c1ccc(O)c(O)c1)[C@H](O)[C@H]2c1c(O)cc(O)c2c1O[C@H](c1ccc(O)c(O)c1)[C@H](O)C2", "inhibition": "18%"}
{"SMILES": "Nc1nc2c(ncn2[C@@H]2O[C@H](COP(=O)(O)OP(=O)(O)OP(=O)(O)O)[C@@H](O)[C@H]2O)c(=O)[nH]1", "inhibition": "20%"}
{"data": "Sample 3", "Structure (SMILES)": "CN(C)C(=O)Cn1cc(-c2nc([C@@](C)(c3ccc(-c4cnc(N)nc4)cc3)C3CC3)no2)cn1", "effect on": "cell-free assay", "method": "competition with immobilised ligand", "concentration": "1 µM"}
{"target": "PIK3CA (Homo sapiens, UniProt P42336, C420R)", "remaining binding [%]": 73}
{"target": "MAP3K10 (Homo sapiens, UniProt Q02779)", "remaining binding [%]": 83}
{"target": "MAPK15 (Homo sapiens, UniProt Q8TD08)", "remaining binding [%]": 91}
{"target": "ROS1 (Homo sapiens, UniProt P08922)", "remaining binding [%]": 88}
{"target": "FYN (Homo sapiens, UniProt P06241)", "remaining binding [%]": 86}
{"target": "NIM1K (Homo sapiens, UniProt Q8IY84)", "remaining binding [%]": 86}
{"target": "WNK2 (Homo sapiens, UniProt Q9Y3S1)", "remaining binding [%]": 100}
{"target": "STK33 (Homo sapiens, UniProt Q9BYT3)", "remaining binding [%]": 100}
{"target": "NTRK1 (Homo sapiens, UniProt P04629)", "remaining binding [%]": 70}
{"target": "STK26 (Homo sapiens, UniProt Q9P289)", "remaining binding [%]": 97}
{"target": "CDK16 (Homo sapiens, UniProt Q00536)", "remaining binding [%]": 86}
{"target": "PRKCH (Homo sapiens, UniProt P24723)", "remaining binding [%]": 100}
{"target": "PIK3CA (Homo sapiens, UniProt P42336)", "remaining binding [%]": 96}
{"target": "Tyrosine-protein kinase JAK1, JH1 (JAK1, Homo sapiens, UniProt P23458)", "remaining binding [%]": 100}
{"target": "BTK (Homo sapiens, UniProt Q06187)", "remaining binding [%]": 73}
{"target": "IRAK1 (Homo sapiens, UniProt P51617)", "remaining binding [%]": 85}
{"target": "Ribosomal protein S6 kinase alpha-1, N-terminal kinase domain (RPS6KA1, Homo sapiens, UniProt Q15418)", "remaining binding [%]": 93}
{"target": "EPHA3 (Homo sapiens, UniProt P29320)", "remaining binding [%]": 100}
{"target": "PAK4 (Homo sapiens, UniProt O96013)", "remaining binding [%]": 96}
{"target": "LCK (Homo sapiens, UniProt P06239)", "remaining binding [%]": 86}
{"target": "PRKD2 (Homo sapiens, UniProt Q9BZL6)", "remaining binding [%]": 100}
{"target": "AKT3 (Homo sapiens, UniProt Q9Y243)", "remaining binding [%]": 100}
{"target": "CDK8 (Homo sapiens, UniProt P49336)", "remaining binding [%]": 89}
{"target": "MTOR (Homo sapiens, UniProt P42345)", "remaining binding [%]": 100}
{"target": "TIE1 (Homo sapiens, UniProt P35590)", "remaining binding [%]": 90}
{"data": "Sample 4", "SMILES": "CO[C@@H]1[C@H](N(C)C(=O)c2ccccc2)C[C@H]2O[C@]1(C)n1c3ccccc3c3c4c(c5c6ccccc6n2c5c31)C(=O)NC4", "mode": "inhibitor", "concentration": "1 µM"}
{"target": "Ribosomal protein S6 kinase alpha-2, kinase domain 1 (RPS6KA2, Homo sapiens, UniProt Q15349)", "inhibition [%]": 78}
{"target": "Tyrosine-protein kinase JAK1, JH1 kinase domain (JAK1, Homo sapiens, UniProt P23458)", "inhibition [%]": 13}
{"target": "BMPR1B (Homo sapiens, UniProt O00238)", "assay": "enzyme activity", "inhibition [%]": 6}
{"target": "NEK4 (Homo sapiens, UniProt P51957)", "assay": "enzyme activity", "inhibition [%]": 0}
{"target": "Tyrosine-protein kinase ABL1, non-phosphorylated (ABL1, Homo sapiens, UniProt P00519)", "assay": "enzyme activity", "inhibition [%]": 12}
{"target": "INSRR (Homo sapiens, UniProt P14616)", "assay": "enzyme activity", "inhibition [%]": 0}
{"target": "Ribosomal protein S6 kinase alpha-6, N-terminal kinase domain (RPS6KA6, Homo sapiens, UniProt Q9UK32)", "inhibition [%]": 96}
{"target": "GRK4 (Homo sapiens, UniProt P32298)", "assay": "enzyme activity", "inhibition [%]": 95}
{"target": "CDK11A (Homo sapiens, UniProt Q9UQ88)", "assay": "enzyme activity", "inhibition [%]": 0}
{"target": "DCLK1 (Homo sapiens, UniProt O15075)", "assay": "enzyme activity", "inhibition [%]": 18}
{"target": "EPHB6 (Homo sapiens, UniProt O15197)", "assay": "enzyme activity", "inhibition [%]": 0}
{"target": "LATS1 (Homo sapiens, UniProt O95835)", "assay": "enzyme activity", "inhibition [%]": 74}
{"target": "TLK1 (Homo sapiens, UniProt Q9UKI8)", "assay": "enzyme activity", "inhibition [%]": 0}
{"note": "A few entries again (sample 2):"}
{"SMILES": "COC(=O)c1cc(OC)c(OC)c(OC)c1", "inhibition": "-1%"}
{"SMILES": "Cc1ccccc1C(=O)Nc1ccc(C(=O)N2CCCC(O)c3cc(Cl)ccc32)c(C)c1 (centres unmarked)", "inhibition": "1%"}
{"SMILES": "CN(C)C(N)=NCCC[C@H](N)C(=O)O", "inhibition": "-17%"}
{"SMILES": "CN1CC[C@@H](NC(=O)Nc2ccc(C#N)cc2)C[C@@H]1c1nc2ccccc2[nH]1", "inhibition": "-6%"}
{"SMILES": "CC1=CCC(=O)O1", "inhibition": "-3%"}
{"SMILES": "Oc1cc(O)c2c(c1)O[C@H](c1ccc(O)c(O)c1)[C@H](O)[C@H]2c1c(O)cc(O)c2c1O[C@H](c1ccc(O)c(O)c1)[C@H](O)C2", "inhibition": "18%"}
{"SMILES": "c1cncnc1", "inhibition": "-16%"}
{"SMILES": "CCCCCCCC/C=C\\CCCCCCCC(=O)OCC", "inhibition": "21%"}
{"SMILES": "O=C[C@H](O)[C@@H](O)[C@H](O[C@H]1O[C@H](CO)[C@@H](O[C@H]2O[C@H](CO)[C@@H](O[C@H]3O[C@H](CO)[C@@H](O[C@H]4O[C@H](CO)[C@@H](O)[C@H](O)[C@H]4O)[C@H](O)[C@H]3O)[C@H](O)[C@H]2O)[C@H](O)[C@H]1O)[C@H](O)CO", "inhibition": "20%"}
{"SMILES": "Cc1[nH]c(=O)c(C#N)cc1-c1ccc2nccn2c1", "inhibition": "-17%"}
{"SMILES": "Nc1nc2c(ncn2[C@@H]2O[C@H](COP(=O)(O)OP(=O)(O)OP(=O)(O)O)[C@@H](O)[C@H]2O)c(=O)[nH]1", "inhibition": "20%"}
{"SMILES": "O=C1CCN([C@@H]2O[C@H](CO)[C@@H](O)[C@H]2O)C(=O)N1", "inhibition": "27%"}
